Published values gathered from unrelated publications.
Numbered parts are unrelated; each lists some results of a single study.

Set 1
Target: Prothrombin, mature alpha-thrombin (F2, Homo sapiens, UniProt P00734)
Method: aptamer microarray, sandwich
Form: DNA with 2'F-ANA
Matrix: in vitro
Tested at: 200 nM
Notes: whole 15-mer aptamer, many near background
With: Cy3 exosite-II aptamer, 400 nM
Direction: higher = stronger binding
Oligonucleotide: GGTTGGTGTGGTTGG
Modification	mean fluorescence intensity [a.u.]
2'F-ANA at 1 2 4 8 9 12	365
2'F-ANA at 2 7 9 10 11 12 13 14	84.5
2'F-ANA at 5 7 8 9 11 13 14	52.7
2'F-ANA at 2 3 5 8 9 10 11 15	59
2'F-ANA at 2 3 4 5 13	65.2
2'F-ANA at 1 4 6 7 9 11 12	170
2'F-ANA at 2 10 12	197
2'F-ANA at 1 2 3 5 6 9 10 11 12 14 15	50.7
2'F-ANA at 1 5 6 11	51.2
2'F-ANA at 2 5 6 12 13 15	109
2'F-ANA at 1 3 5 7 8 10 11 12 13	48.8
2'F-ANA at 3 4 5 8 10 13 14 15	194
2'F-ANA at 1 2 3 5 8 9 12 14	45.2
2'F-ANA at 1 6 8 9 11 12 13 14 15	64.8
2'F-ANA at 2 6 10 12	197
2'F-ANA at 1 5 8 10 11 15	48.6
2'F-ANA at 1 2 9 10 11 12 14	70.4
2'F-ANA at 1 2 3 8 12 14	108
2'F-ANA at 3 4 8 11	611
2'F-ANA at 1 3 5 7 8 9 14	51.5
2'F-ANA at 3 4 5 7 8 9 10 11 13 14 15	94.5
2'F-ANA at 1 3 6 10 11 12 15	99.2
2'F-ANA at 2 7 8 12 13 14	226
2'F-ANA at 1 2 10 11 12 13 14	55
2'F-ANA at 5 12 13	131

Set 2
Target: Sal-like protein 4, full length isoform B (SALL4, Homo sapiens, UniProt Q9UJQ4-2, residues 1-616)
Method: universal PBM
Form: double-stranded DNA, one strand shown
Matrix: in vitro
Tested at: not given
Notes: 8-mer, flanks averaged, mean of replicates
Direction: higher = stronger binding
Oligonucleotide	E-score
CGACGTTC	-0.238
TAGCAGGA	-0.168
ATTAAACA	0.318
GAGGATCC	-0.226
CTCTTTAA	0.0976
ACTCCCAT	0.047
ATCTGGCC	-0.191
ACTGCACC	-0.162
GTGGATTA	0.115
GCCAAAGC	-0.146
GTGCGAGA	-0.0891
ATGGGCGC	-0.249
ACTGATGG	-0.146
CTTTCTAA	0.0415
AAACGGGC	-0.157
AGCTCGCA	-0.23
GTGCGATA	0.0157
ACGCTACT	-0.0546
AGCGTGGG	-0.286
TATCAAAA	0.309
CTTCATAC	0.235
ATCGACGG	-0.188
CTTGTCTA	0.134
AGGCGGAA	0.116

Set 3
Target: Histone acetyltransferase KAT6A, winged helix 2, GST fusion (KAT6A, Homo sapiens, UniProt Q92794, residues 85-181)
Method: protein binding microarray
Form: double-stranded DNA, one strand shown
Matrix: in vitro
Tested at: not given
Notes: 8-mer, flanks averaged, mean of 2 arrays, mostly near background
Relative to: not given
Direction: higher = stronger binding
Construct (chain): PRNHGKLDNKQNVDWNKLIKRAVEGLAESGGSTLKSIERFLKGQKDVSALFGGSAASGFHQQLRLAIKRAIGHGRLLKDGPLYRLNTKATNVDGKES
Oligonucleotide	E-score
ACGACCTA	-0.0225
CTTCTAAA	-0.0258
ATATTTAA	0.025
CTGAGGAA	0.0268
TCACGACA	-0.0417
GCTCGGAA	0.00709
CATTTGTC	-0.0654
GCGCGAGC	0.179
GGGGTGTA	-0.0702
GAGTATCA	-0.0276
TTATGAAA	0.0393
CTCAGCAC	-0.00587
GAATCGTC	-0.0601
CGCTGGCC	-0.0213
AGTTCGTA	-0.0507
CAAACGCC	-0.0538
ACCGCAAT	0.189
AAAATGGA	0.075
AGGTGTCG	-0.103
GAATATTC	0.118
AAACCAGC	0.189
ACAATGAT	-0.19
ATATATGG	0.0524
TAGATCCA	-0.158
GAGTGTCC	0.0575

Set 4
Target: RNA binding protein fox-1 homolog 2, RRM domain, GST-SBP tag (RBFOX2, Homo sapiens, UniProt O43251-10, residues 100-194)
Method: RNA Bind-n-Seq
Form: RNA
Matrix: in vitro
Tested at: 365 nM
Notes: natural RNA segment, single round, ends assumed
Relative to: no-protein control
Direction: higher = stronger binding
Shared flanks, not repeated: GGGAGUUCUACAGUCCGACGAUC … UGGAAUUCUCGGGUGCCAA
Oligonucleotide	RBNS enrichment (R)
UGCUACGCGUCAAACGCCUGGAGAACCCCUCGCCCCAGGCGCCGGCACGCCGCCUCCUGCCUCCCUGAGCGCUGCUGCAUCCUGCACGCCCUGGAACCCAGGAGCGCCCC	1.67
CUUGUGUGUGCGCGCAAGGCCCCUCUCUGCACAGGGGUUCUUCGGGGGAGGGGGUAUUUGCAAAACCUUAAUUUUGUUAAAAUGGGGGACUCUGUCAGGGGACUCUGUCA	0.585
GCAGAUUACAGAAUGUUGCCUUGUUUUCCUUGGAAAUUUUGCAAAUUGUUAUGUGAAAUUUUAGGGUAACGGUGAUUAAGCUCUGCACUGGUAUUUGGAAUUUUUUUUCC	0.374
CGAAAAAAAAAUCAAAGCGGGAAGAAAAUCAGAGGGAAGGUUAAGGUUGGCUCUGGCCAGGAUUCCAGGCAGCAGGUUGGAGUGACUGGUGGGCCUAGAUCACUGGUGUG	0.787
CUUAUAGACUAUAGGCAAUAAAGCUAACAAUAAACCUUAUUUAACACAAACCACAUCCAUAUCCUCUGUUCAUUUGAUUUUGGAAAAAGUAGCAUAUCCAGUAGUUUCAG	0.677
GUGUGAUGUAUCACAAAUUGUGCUGAGGUUAUUUUAGUAUGUGUGUUUCAUUCCCGUGCUUCUGUUCUGAAGUCCUGGAAUACAGUUUUCAGUGUAAUUAAUUCAACUGC	0.819
UCAUGGGCCAGGUCCUCAGUUUCUAACUCUUUCCCUUCCCCACAGUUCGUUGUCGCCAUGCGGCUUUUGCUCAGUCUAGUAUUCUGCCUUGUUUUUCACAUUGGGAACCC	0.809
CCUGGUUUUGUACAUAUCUAACUCUGUUCUCUUUUGGUUGUUCAGAAACUGGAUUUUUUUUUUCUUAAGCAGUGCUUAAUUUGUGUUUUUUAAUUUUGAUUCAGAAGUAG	0.879
UGCUGAUUCCACAGCAUGCAGCCUGGUAGGGGAAGGAAAAUAAAAGGGUGUGAAGAAGGAAUAGUUUUAUAAUCUCGGAAGAUGAUACCAAGAGCAGAGGCAACAAAUAG	12
UCCUGUCCCUUGGUUCAGGAAAGUAGCUUGGAAAAGGAGUAGGGGUAUAGCUUGGGUCCCUUUUCCUGCAAGGCCCCAUGGGGCAGAAUAUAAUAAAUAUUCUGAGUGAG	1.55
GAAAAACAGUAACUGCUGUUUGUUACAGCCUGAAAUCCAGGACGACCGCAUUUUCUCUUGGUUUCUAAAAGGAAGGGAAUCUUCCCGAUUUUUCUAAGAUGUUGAGUAUU	3
CUUACUGUUAACCAAAUUUUGAGCAAGGAGUCUCAAAGGUAAUUCUGAACCAGAAUUACAUGUUAAUGAACAGUGUACCUUUUAACAGUGUAAAUCACGGAAUAUCCGUG	0.392

Excerpt of the above (set 3):
Oligonucleotide	E-score
GGGGTGTA	-0.0702
GAGTATCA	-0.0276
TTATGAAA	0.0393
CTCAGCAC	-0.00587
GAATCGTC	-0.0601
